Measurements collected from several papers.
A part holds a random share of what one study measured.
Chain of UniProt Q9BWU1 (whole entry, looked up): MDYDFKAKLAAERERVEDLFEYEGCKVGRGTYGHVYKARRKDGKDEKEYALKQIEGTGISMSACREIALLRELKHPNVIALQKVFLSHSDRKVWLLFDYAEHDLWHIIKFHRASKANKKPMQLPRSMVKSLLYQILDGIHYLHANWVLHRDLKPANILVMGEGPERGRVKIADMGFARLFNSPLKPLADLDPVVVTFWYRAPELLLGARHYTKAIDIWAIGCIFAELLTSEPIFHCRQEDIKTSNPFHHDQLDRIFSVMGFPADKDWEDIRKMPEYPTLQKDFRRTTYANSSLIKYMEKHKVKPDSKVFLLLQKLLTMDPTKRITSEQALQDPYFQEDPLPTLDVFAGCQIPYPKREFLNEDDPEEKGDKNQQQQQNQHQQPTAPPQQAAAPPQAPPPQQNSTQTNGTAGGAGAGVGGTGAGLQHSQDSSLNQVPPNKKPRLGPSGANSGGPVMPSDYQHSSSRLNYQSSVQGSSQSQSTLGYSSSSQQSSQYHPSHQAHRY
Chain of UniProt O75716 (whole entry, looked up): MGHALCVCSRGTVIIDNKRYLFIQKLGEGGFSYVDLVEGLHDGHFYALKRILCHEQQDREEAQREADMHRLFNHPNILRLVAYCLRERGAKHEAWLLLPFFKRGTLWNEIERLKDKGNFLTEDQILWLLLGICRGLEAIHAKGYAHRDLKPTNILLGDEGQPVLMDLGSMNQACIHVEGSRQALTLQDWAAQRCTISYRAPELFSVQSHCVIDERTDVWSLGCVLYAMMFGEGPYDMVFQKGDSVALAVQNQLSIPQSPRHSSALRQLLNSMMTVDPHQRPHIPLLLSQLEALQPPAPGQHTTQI
Chain of UniProt P31751 (whole entry, looked up): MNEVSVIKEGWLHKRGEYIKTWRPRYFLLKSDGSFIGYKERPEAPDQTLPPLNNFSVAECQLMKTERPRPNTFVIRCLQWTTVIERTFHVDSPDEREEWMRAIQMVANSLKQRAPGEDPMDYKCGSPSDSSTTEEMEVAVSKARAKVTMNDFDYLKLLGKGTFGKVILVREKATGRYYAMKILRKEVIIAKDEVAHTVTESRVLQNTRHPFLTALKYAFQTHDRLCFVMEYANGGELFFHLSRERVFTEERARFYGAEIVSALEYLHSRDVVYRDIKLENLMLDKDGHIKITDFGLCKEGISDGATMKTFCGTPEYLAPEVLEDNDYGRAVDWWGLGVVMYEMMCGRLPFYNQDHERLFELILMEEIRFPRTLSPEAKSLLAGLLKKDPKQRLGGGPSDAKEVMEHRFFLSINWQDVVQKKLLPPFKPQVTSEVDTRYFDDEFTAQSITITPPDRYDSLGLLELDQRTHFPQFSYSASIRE
Chain of UniProt P30291 (whole entry, looked up): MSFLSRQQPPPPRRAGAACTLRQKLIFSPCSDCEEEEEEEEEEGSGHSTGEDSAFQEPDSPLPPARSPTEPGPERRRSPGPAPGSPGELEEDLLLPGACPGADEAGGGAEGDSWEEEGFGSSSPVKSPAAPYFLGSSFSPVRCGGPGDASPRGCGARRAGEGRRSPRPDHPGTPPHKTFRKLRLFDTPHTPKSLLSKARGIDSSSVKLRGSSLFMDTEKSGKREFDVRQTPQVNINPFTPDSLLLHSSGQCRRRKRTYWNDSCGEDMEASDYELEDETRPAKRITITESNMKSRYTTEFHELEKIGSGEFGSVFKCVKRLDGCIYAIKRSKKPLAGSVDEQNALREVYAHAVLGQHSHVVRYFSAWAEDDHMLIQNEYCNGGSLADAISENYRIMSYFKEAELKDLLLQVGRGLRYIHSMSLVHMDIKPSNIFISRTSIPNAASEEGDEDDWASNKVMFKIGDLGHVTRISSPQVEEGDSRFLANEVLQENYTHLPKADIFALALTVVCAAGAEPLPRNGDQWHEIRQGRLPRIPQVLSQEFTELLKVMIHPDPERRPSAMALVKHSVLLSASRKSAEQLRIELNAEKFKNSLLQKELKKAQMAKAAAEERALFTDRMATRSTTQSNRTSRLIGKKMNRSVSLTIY
Chain of UniProt Q9UQB9 (whole entry, looked up): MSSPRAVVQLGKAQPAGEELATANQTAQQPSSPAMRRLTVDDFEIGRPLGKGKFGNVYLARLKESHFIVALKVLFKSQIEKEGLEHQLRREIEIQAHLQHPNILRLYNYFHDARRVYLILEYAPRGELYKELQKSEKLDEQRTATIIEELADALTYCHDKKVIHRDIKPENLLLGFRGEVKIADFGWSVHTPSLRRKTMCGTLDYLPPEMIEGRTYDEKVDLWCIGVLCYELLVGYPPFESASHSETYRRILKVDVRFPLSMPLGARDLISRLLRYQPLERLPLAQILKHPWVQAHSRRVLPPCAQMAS
Chain of UniProt Q15759 (whole entry, looked up): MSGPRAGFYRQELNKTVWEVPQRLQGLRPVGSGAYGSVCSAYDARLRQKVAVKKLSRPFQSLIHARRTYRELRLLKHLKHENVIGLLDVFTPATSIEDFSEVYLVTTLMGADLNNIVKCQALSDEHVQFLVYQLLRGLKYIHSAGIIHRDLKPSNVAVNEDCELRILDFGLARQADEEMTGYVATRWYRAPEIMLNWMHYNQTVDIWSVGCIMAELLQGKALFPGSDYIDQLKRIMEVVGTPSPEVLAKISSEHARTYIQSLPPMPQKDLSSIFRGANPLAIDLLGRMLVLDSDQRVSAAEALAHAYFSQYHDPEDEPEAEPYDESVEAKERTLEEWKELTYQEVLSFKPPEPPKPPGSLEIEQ
Chain of UniProt Q96L34 (whole entry, looked up): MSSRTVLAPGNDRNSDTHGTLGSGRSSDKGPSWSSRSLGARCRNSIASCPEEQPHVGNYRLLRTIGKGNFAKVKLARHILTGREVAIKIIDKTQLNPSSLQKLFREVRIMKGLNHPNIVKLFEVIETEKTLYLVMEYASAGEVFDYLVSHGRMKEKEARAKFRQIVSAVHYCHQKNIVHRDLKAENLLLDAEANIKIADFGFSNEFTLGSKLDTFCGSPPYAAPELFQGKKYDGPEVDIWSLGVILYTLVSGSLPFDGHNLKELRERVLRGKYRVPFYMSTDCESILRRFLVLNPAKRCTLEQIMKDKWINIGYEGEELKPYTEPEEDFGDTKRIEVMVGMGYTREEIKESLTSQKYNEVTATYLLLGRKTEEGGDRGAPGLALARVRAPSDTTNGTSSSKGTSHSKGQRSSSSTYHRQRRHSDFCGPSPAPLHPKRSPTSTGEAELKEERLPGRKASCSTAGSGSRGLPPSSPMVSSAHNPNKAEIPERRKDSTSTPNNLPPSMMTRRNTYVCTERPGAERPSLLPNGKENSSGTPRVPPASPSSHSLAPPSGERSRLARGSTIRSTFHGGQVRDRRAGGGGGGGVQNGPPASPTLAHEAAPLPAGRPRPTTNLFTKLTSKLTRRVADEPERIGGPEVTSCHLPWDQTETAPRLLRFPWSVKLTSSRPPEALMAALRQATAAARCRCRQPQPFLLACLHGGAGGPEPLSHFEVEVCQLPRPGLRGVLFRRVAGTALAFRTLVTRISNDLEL

Set 1 — cell line: A-375; tested at: 100 µM; time: 18 h
`Cc1onc(-c2ccccc2)c1-c1ccc(S(N)(=O)=O)cc1` gave a viability of 73.5%.
The viability of `Cn1c(=O)cc(N2CCC[C@@H](N)C2)n(Cc2ccccc2C#N)c1=O` is reported as 94.1%.
The viability of `CC(=O)OCC(=O)[C@@]1(O)CC[C@H]2[C@@H]3CCC4=CC(=O)CC[C@]4(C)[C@@]3(F)[C@@H](O)C[C@@]21C` is reported as 103%.
For `CCC(C)(Oc1ccc(C2(c3ccc(OC(C)(CC)C(=O)O)cc3)CCCCC2)cc1)C(=O)O` (stereo not drawn), the viability was 92%.
For `COc1cc(C(=O)NC2CCCNC2)cc(OC)c1OC` (stereo not drawn), the viability was 111%.
The viability of `CCCCCCCCCCCCCCCC[N+](C)(C)CCN(Cc1ccc(OC)cc1)c1ncccn1` is reported as 9.89%.
`N#CCC(C1CCCC1)n1cc(-c2ncnc3[nH]ccc23)cn1` (stereo not drawn) has a viability of 76.4%.
With `Cc1nc(C)c(Cl)c(O)c1Cl` the viability was 105%.
The viability of `CCOc1nc2cccc(C(=O)O)c2n1Cc1ccc(-c2ccccc2-c2nnn[nH]2)cc1` is reported as 102%.
The viability of `OC(CCN1CCCCC1)(c1ccccc1)C1C[C@@H]2C=C[C@H]1C2` (stereo partly drawn) is reported as 36.4%.
With `CCCNC(C)C(=O)Nc1ccccc1C` (stereo not drawn) the viability was 92.8%.
`c1ccc(-c2ccc(C(c3ccccc3)n3ccnc3)cc2)cc1` (stereo not drawn) gave a viability of 8.23%.
With `CC(=O)Oc1cc2c(s1)CCN(C(C(=O)C1CC1)c1ccccc1F)C2` (stereo not drawn) the viability was 71.8%.
With `NC[C@@H]1O[C@H](O[C@H]2[C@@H](O)[C@H](O[C@@H]3[C@@H](O)[C@H](N)C[C@H](N)[C@H]3O[C@H]3O[C@H](CN)[C@@H](O)[C@H](O)[C@H]3N)O[C@@H]2CO)[C@H](N)[C@@H](O)[C@@H]1O` the viability was 106%.
`CC(S)C(=O)NCC(=O)O` (stereo not drawn) gave a viability of 108%.
`O=c1c(-c2ccc(O)cc2)coc2cc(O[C@@H]3O[C@H](CO)[C@@H](O)[C@H](O)[C@H]3O)ccc12` gave a viability of 98.1%.

Set 2 — action: inhibitor; tested at: 1 µM
SMILES: CC#CC(=O)N1CCC[C@H]1c1nc(-c2ccc(C(=O)Nc3ccccn3)cc2)c2c(N)nccn12
RET (Homo sapiens, UniProt P07949, M918T); enzyme activity — inhibition: 3%.
The inhibition was 7% (CLK1 (Homo sapiens, UniProt P49759); enzyme activity).
EGFR (Homo sapiens, UniProt P00533, T790M); enzyme activity — inhibition: 0%.
For TYRO3 (Homo sapiens, UniProt Q06418); enzyme activity: inhibition read 33%.
For DDR2 (Homo sapiens, UniProt Q16832); enzyme activity: inhibition read 8%.
TAOK2 (Homo sapiens, UniProt Q9UL54); enzyme activity — inhibition: 27%.
The inhibition was 0% (PIKFYVE (Homo sapiens, UniProt Q9Y2I7); enzyme activity).
It gave 0% for inhibition (MARK2 (Homo sapiens, UniProt Q7KZI7); enzyme activity).
For Ribosomal protein S6 kinase alpha-3, N-terminal kinase domain (RPS6KA3, Homo sapiens, UniProt P51812): inhibition read 35%.
PAK3 (Homo sapiens, UniProt O75914); enzyme activity — inhibition: 6%.
It gave 10% for inhibition (CDK19 (Homo sapiens, UniProt Q9BWU1)).
MAP4K3 (Homo sapiens, UniProt Q8IVH8); enzyme activity — inhibition: 2%.
The inhibition was 6% (FLT3 (Homo sapiens, UniProt P36888); enzyme activity).
The inhibition was 0% (STK16 (Homo sapiens, UniProt O75716); enzyme activity).

Set 3 — read-out: enzyme activity; action: inhibitor; tested at: 0.5 µM; relative to: control
Target: Mitogen-activated protein kinase kinase kinase kinase 5 (MAP4K5, Homo sapiens, UniProt Q9Y4K4)
Chain of UniProt Q9Y4K4 (whole entry, looked up): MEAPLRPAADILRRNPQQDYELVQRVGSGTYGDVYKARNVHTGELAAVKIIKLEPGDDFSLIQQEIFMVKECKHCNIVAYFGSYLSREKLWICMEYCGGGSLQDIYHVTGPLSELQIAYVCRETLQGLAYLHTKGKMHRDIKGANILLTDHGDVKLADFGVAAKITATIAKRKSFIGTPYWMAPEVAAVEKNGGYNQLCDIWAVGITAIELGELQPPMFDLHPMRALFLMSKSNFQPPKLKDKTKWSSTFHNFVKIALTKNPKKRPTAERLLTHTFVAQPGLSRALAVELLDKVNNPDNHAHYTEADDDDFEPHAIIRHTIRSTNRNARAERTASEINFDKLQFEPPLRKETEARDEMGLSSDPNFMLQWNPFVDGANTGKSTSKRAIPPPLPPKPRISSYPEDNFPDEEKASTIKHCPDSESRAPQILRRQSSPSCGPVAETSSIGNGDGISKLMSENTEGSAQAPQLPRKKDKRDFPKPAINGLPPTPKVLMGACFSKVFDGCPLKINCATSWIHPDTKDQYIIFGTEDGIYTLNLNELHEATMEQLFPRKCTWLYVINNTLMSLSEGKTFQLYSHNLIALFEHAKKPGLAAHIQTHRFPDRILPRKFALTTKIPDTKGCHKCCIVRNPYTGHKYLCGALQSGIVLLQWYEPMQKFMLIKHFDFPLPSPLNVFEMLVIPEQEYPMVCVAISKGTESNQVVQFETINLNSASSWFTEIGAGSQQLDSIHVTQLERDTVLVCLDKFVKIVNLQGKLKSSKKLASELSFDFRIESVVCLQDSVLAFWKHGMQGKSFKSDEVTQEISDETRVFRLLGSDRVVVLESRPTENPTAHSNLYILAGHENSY
`COc1ccc(Cl)cc1NC(=O)Nc1cc(C)nc2ccccc12` has a remaining activity of 100%.
For `CCC(=O)Nc1ccc2ncnc(Nc3cccc(Br)c3)c2c1`, the remaining activity was 89%.
The remaining activity of `CS(=O)(=O)CCNCc1ccc(-c2ccc3ncnc(Nc4ccc(OCc5cccc(F)c5)c(Cl)c4)c3c2)o1` is reported as 109%.
`COc1cc2ncnc(Nc3ccc(OCc4ccccc4)cc3)c2cc1OC` gave a remaining activity of 65.4%.
`COc1cc2ncc(-c3ccccc3)nc2cc1OC` has a remaining activity of 99.8%.
`Nc1[nH]nc2nnc(-c3c(-c4ccccc4)nn4ccccc34)cc12` has a remaining activity of 50.3%.
The remaining activity of `CC(C)[C@H](CO)Nc1nc(Nc2cccc(Cl)c2)c2ncn(C(C)C)c2n1` is reported as 97.5%.
`COc1cc2ncnc(N3CCN(C(=O)Nc4ccc(Oc5ccccc5)cc4)CC3)c2cc1OC` gave a remaining activity of 81.6%.
`CCOc1cc2ncnc(Nc3cccc(Br)c3)c2cc1OCC` has a remaining activity of 47.7%.
The remaining activity of `O=c1cc(N2CCOCC2)oc2c1ccc1ccccc12` is reported as 103%.
With `CCN1/C(=C/C(C)=O)Sc2ccc(OC)cc21` the remaining activity was 92.3%.
The remaining activity of `Cn1cc(/C=C2\C(=O)Nc3ccc(S(N)(=O)=O)cc32)c2ccccc21` is reported as 13.4%.
For `Cc1nc(Nc2ncc(C(=O)Nc3c(C)cccc3Cl)s2)cc(N2CCN(CCO)CC2)n1`, the remaining activity was 3.07%.
For `CN(C)CCCn1cc(C2=C(c3c[nH]c4ccccc34)C(=O)NC2=O)c2ccccc21`, the remaining activity was 68.5%.
`COc1ccc(-c2cnc3c(-c4ccsc4)cnn3c2)cc1` gave a remaining activity of 60.3%.
For `Cc1ccc(NC(=O)c2ccc(CN3CCN(C)CC3)cc2)cc1Nc1nccc(-c2cccnc2)n1`, the remaining activity was 102%.
The remaining activity of `O=C(Nc1ccc(Cl)cc1)c1ccccc1NCc1ccncc1` is reported as 95.8%.
`Cn1cnc2cc3c(Nc4cccc(Br)c4)ncnc3cc21` has a remaining activity of 56.1%.
For `CC(C)c1nn(-c2c(Cl)cccc2Cl)c2nc(Cc3ccc(OCCO)cc3)[nH]c(=O)c12`, the remaining activity was 89.9%.
For `O=C1NC(=O)/C(=C/c2ccc3nccnc3c2)S1`, the remaining activity was 85.4%.

Set 4 — tested at: 1 µM
SMILES: C[C@H](c1ccc(F)cc1)N(Cc1cccc(C(=O)O)c1)C(=O)c1cnc2ccccc2c1
It gave 96% for remaining binding (WEE1 (Homo sapiens, UniProt P30291); cell-free assay, competition with immobilised ligand).
For EPHA8 (Homo sapiens, UniProt P29322); cell-free assay, competition with immobilised ligand: remaining binding read 76%.
MAP4K2 (Homo sapiens, UniProt Q12851); cell-free assay, competition with immobilised ligand — remaining binding: 100%.
CDC42BPB (Homo sapiens, UniProt Q9Y5S2); cell-free assay, competition with immobilised ligand — remaining binding: 94%.
The remaining binding was 100% (CDK19 (Homo sapiens, UniProt Q9BWU1); competition binding).
For BMP2K (Homo sapiens, UniProt Q9NSY1); cell-free assay, competition with immobilised ligand: remaining binding read 96%.
It gave 100% for remaining binding (FGFR1 (Homo sapiens, UniProt P11362); cell-free assay, competition with immobilised ligand).
For AKT2 (Homo sapiens, UniProt P31751); cell-free assay, competition with immobilised ligand: remaining binding read 87%.
DYRK1B (Homo sapiens, UniProt Q9Y463); cell-free assay, competition with immobilised ligand — remaining binding: 100%.
For STK36 (Homo sapiens, UniProt Q9NRP7); cell-free assay, competition with immobilised ligand: remaining binding read 100%.
The remaining binding was 99% (FLT3 (Homo sapiens, UniProt P36888, D835V/ITD); cell-free assay, competition with immobilised ligand).
The remaining binding was 80% (EPHA7 (Homo sapiens, UniProt Q15375); cell-free assay, competition with immobilised ligand).
It gave 100% for remaining binding (MAP3K4 (Homo sapiens, UniProt Q9Y6R4); cell-free assay, competition with immobilised ligand).
For Aurora kinase C (AURKC, Homo sapiens, UniProt Q9UQB9); cell-free assay, competition with immobilised ligand: remaining binding read 100%.
The remaining binding was 100% (MAPK11 (Homo sapiens, UniProt Q15759); cell-free assay, competition with immobilised ligand).
The remaining binding was 79% (PLK1 (Homo sapiens, UniProt P53350); cell-free assay, competition with immobilised ligand).
The remaining binding was 100% (MYLK2 (Homo sapiens, UniProt Q9H1R3); cell-free assay, competition with immobilised ligand).
For EGFR (Homo sapiens, UniProt P00533, L858R); cell-free assay, competition with immobilised ligand: remaining binding read 100%.
For CDK17 (Homo sapiens, UniProt Q00537); cell-free assay, competition with immobilised ligand: remaining binding read 84%.
For CDKL1 (Homo sapiens, UniProt Q00532); binding, competition with immobilised ligand: remaining binding read 100%.
It gave 100% for remaining binding (HASPIN (Homo sapiens, UniProt Q8TF76); cell-free assay, competition with immobilised ligand).
For LIM domain kinase 2 (LIMK2, Homo sapiens, UniProt P53671); cell-free assay, competition with immobilised ligand: remaining binding read 100%.
EGFR (Homo sapiens, UniProt P00533, del746-750); cell-free assay, competition with immobilised ligand — remaining binding: 100%.
MARK4 (Homo sapiens, UniProt Q96L34); cell-free assay, competition with immobilised ligand — remaining binding: 100%.
For AAK1 (Homo sapiens, UniProt Q2M2I8); binding: remaining binding read 100%.

Repeated from above (set 4):
MARK4 (Homo sapiens, UniProt Q96L34); cell-free assay, competition with immobilised ligand — remaining binding: 100%.
For CDK17 (Homo sapiens, UniProt Q00537); cell-free assay, competition with immobilised ligand: remaining binding read 84%.
The remaining binding was 100% (CDK19 (Homo sapiens, UniProt Q9BWU1); competition binding).
For BMP2K (Homo sapiens, UniProt Q9NSY1); cell-free assay, competition with immobilised ligand: remaining binding read 96%.
